# Measurements collected from several papers.
# Numbered parts are unrelated; each lists some results of a single study. Positions count from the first letter of the parent shown.

# Study 1
# Target: ABI1, truncated, D143A, DHFR fusion (Arabidopsis thaliana)
# Technique: DHFR PCA, deep sequencing
# Sample: yeast
# Setting: methotrexate growth selection, single substitutions
# With: (+)-ABA 200 µM
# Baseline: wild-type fitted maximum
# Direction: higher = stronger binding
# Starting sequence: PYL1, truncated, DHFR fusion (Arabidopsis thaliana); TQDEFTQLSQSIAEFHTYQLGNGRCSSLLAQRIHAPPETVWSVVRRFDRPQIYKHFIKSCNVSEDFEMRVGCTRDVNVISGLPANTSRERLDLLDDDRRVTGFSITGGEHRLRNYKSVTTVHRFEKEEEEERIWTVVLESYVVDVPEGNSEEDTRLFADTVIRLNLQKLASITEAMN
Substitution,relative binding score
N114I,-0.932%
E147S,91.6%
E67M,95.1%
R49A,102%
N77C,107%
N114Q,67.1%
R111C,63.6%
E131L,103%
L112H,0.87%
V78P,69.2%
L138A,28.9%
V145L,83.5%
L20C,105%
E174S,89.9%
T120H,3.08%
I57T,59.9%
V44T,67.8%
Q2L,100%
T120M,11.4%

# Study 2
# Target: RNA binding protein fox-1 homolog 2, RRM domain, GST-SBP tag (RBFOX2, Homo sapiens, UniProt O43251-10, residues 100-194)
# Technique: RNA Bind-n-Seq
# Molecule type: RNA
# Sample: in vitro
# Concentration: 365 nM
# Setting: natural RNA segment, single round, ends assumed
# Baseline: no-protein control
# Direction: higher = stronger binding
# All sequences stand within: GGGAGUUCUACAGUCCGACGAUC … UGGAAUUCUCGGGUGCCAA
# Target sequence (chain): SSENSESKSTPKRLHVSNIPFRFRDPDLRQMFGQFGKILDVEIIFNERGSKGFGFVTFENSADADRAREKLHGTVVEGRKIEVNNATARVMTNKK
Strand,RBNS enrichment (R)
CUCCUACCAAGCAGGAGGCCAGGAACUUCUUUGGACUUGGAAGGUGUGCGGGGACUGGCCGAGGCCCCUGCACCCUGCGCAUCAGGACUGCUUCAUCGUCUUGGCUGAGA,0.497
GUGGGACUGUGGAGACUCCGUUAAGACAGGAGCUUGUCAGAGGUGGACAACACGAAGAUUUCCUUUGCAUUUUCAGUAACCUUUGGAGCACACUUCUCUUAUUUCUCCUA,0.76
AACAGAUGAACUGUAAUGACGACCUGCUAACUGCUAGCCUUCAGCGCUAUCUGUUCCCUCACACAGUCGCUAAGUGGUCAAAUUGGUGCUUGAAAUUCAUUGGUCUAGUU,1.28
GUGAUUAUUUUCCUAAAUACAAAGACAAAUAAUUUACUUAUUUUAUGUUAAUUACGGGCAUGAAGCAAAAGGUUUCUUUGGGGAACAUGCAGUUUUGUAGUGCUGGGGUU,1.26
CUCCACAGCCUGUGCUCUGUUCAGUUCCCAACACAAUCGACAAUAAACGGUGAUGCCCAUUCGGAAGAGCCUCCUGUGAGUCGUCUUUUUGUUGAAAGAAAUGGGUGGGG,1.81
AUGACAUGGUUAAUCUGGAACUUACGUUCUUAUACCAAUAAAAGGUACCUCAAUACAUGUUCUUUCAUUUCUGUUUUGUUUUUUUUUUUUUAAUUUAAUGUAUUAAAGCA,0.874
UGUCUACUGACCCCAACCCUUGAUGAUAUGUAUUUAUUCAUUUGUUAUUUUACCAGCUAUUUAUUGAGUGUCUUUUAUGUAGGCUAAAUGAACAUAGGUCUCUGGCCUCA,0.655
UUAAAUAUGGCACUGCUUCUAAGCCUCGUUCCAGUUAAGUUUCACAUGACAGUUAGCUCCUCUGACCUGUCUUUCUAGGUAACUGGAAAUGAACUUCAGGCUUGAUACAG,0.249
GCUCUUUGCAGAUGCCUAUACUUCCAACACUACCAUGUCCACAAACCACCCUGGGGGAGGGCCCUUCCAAAGGGAGGCUUGCUAGUUUCAGCGUCUAGCAGUUGGGUCCU,0.428
GUGAUGCCCUCCUGGGCCCUUAGGCAGAGCCUGGUCCAUUGUACCAGGCAGCCUAGCCCAGCCCAGGGCACAUGGCAAGAGGGACUGGACCCACCUUUGGGUGAUGGGUG,0.297
GGCUCCAUCCUUCUACUUCAACCCUCAGAGGAGCAGACAGGUGCAAAUAAACAACAGACUUUAUUAACCUUCUGAAGCAGCUUUUUCCAUCUCCCGUCUUAGUCCUGUCC,0.508
CUCCUCCCCCGCUCCCCAACUUCUCGCCCAGCUGGCCGAGGCGGGGCAACACUAAGGUGCUCUUAGAAACACUAAUGUUCCUCUGGGGCAGCCCCCACCUCCGUCCUGAC,0.374

# Study 3
# Target: Sal-like protein 4, full length isoform A (SALL4, Homo sapiens, UniProt Q9UJQ4, residues 1-1053)
# Chain of UniProt Q9UJQ4 (whole entry, looked up): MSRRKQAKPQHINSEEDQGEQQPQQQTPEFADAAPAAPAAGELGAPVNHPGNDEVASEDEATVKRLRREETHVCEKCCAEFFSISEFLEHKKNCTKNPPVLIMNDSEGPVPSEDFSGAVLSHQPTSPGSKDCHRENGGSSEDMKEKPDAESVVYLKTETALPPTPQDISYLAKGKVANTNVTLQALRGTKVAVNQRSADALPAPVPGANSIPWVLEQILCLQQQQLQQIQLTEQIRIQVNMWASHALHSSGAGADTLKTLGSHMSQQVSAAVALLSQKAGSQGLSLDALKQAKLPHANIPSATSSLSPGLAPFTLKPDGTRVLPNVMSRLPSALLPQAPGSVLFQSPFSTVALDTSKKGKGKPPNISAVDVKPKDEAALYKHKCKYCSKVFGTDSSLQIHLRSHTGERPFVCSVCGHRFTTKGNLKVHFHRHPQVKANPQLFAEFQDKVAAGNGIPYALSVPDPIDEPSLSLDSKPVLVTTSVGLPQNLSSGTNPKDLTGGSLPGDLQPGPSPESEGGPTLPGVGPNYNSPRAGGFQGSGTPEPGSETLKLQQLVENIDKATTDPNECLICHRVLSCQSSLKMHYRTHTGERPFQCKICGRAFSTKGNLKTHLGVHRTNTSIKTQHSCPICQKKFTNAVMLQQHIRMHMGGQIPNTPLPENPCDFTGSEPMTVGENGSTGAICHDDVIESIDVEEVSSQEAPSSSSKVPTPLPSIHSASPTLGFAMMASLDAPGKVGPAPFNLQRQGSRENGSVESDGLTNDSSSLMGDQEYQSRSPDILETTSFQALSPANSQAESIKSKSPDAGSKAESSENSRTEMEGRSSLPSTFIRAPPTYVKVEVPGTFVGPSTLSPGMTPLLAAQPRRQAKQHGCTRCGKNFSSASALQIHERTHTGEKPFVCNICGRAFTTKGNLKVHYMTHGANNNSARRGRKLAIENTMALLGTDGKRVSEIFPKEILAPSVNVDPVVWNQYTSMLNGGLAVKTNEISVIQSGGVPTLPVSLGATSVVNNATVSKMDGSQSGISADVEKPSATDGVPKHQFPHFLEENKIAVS
# Technique: universal PBM
# Molecule type: double-stranded DNA, one strand shown
# Sample: in vitro
# Concentration: 600 nM
# Setting: 8-mer, flanks averaged, mean of replicates
# Direction: higher = stronger binding
Strand,E-score
GGTCGAAA,-0.168
AAACGTTC,0.103
CACCCTGC,-0.23
GCAAGTCA,-0.21
ACCCAGGC,-0.277
TATTGCCA,0.199
CGTCTTCC,-0.155
ACTCGGCC,-0.191
CAATGATG,0.16
ATGGGCTG,-0.159
ATTAGTAA,0.292
GTAAAATA,0.288
AAGATAAA,0.323
ACATCTCG,0.0806
CCAGACCG,-0.306
ATCGGGTA,-0.0875
TAGAGCGA,-0.0884
GGTTTTTA,0.11
AACCACTG,-0.108

# Study 4
# Target: Fragile X messenger ribonucleoprotein 1, C-terminal low-complexity region (Fmr1, Mus musculus, UniProt P35922)
# Technique: RNA Bind-n-Seq
# Molecule type: RNA
# Sample: in vitro
# Concentration: 200 nM
# Setting: whole 134-nt RNA, ends assumed
# With: 150 mM LiCl
# Baseline: input library
# Direction: higher = stronger binding
# Library: 7-deaza-guanosine replaces G
# All sequences stand within: GGGAGUUCUACAGUCCGACGAUC … UGGAAUUCUCGGGUGUCAAGG
Strand,log2 enrichment
CACAGACAACACGCACCCACACAGACACAGAGGGAAGGGGUUGGGAUGGGGACAGGGUGCACAGCAGGGCGGGGUAGGAAACCAGCCCCU,1.65
UCAAGUCCUGUGCUACACAUCGUAUGUACCGAAUCGGUUUGGGGUUUGGGUUUGGAAAGUAUUAUGUUACGCCGUUCGGAUCUGCACUUC,-1.45
UCAAGUCCUGUGCUACACAUCGUAUGUACCGAAUCGGGGUUGGUUGGGGUUGGGAAAGUAUUAUGUUACGCCGUUCGGAUCUGCACUUCC,-1.52
CAAGUCCUGUGCUACACAUCGUAUGUACCGAAUCAAACCCAAAUUUAAACCCAAAAAAGUAUUAUGUUACGCCGUUCGGAUCUGCACUUC,0.981
UCCUGUGCUACACAUCGUAUGUACCGAAUCGGUUUUUUGGUUUUUUGGGGUUUUUUGGGAAAGUAUUAUGUUACGCCGUUCGGAUCUGCA,-0.38
UUUGUCCCUGCUCAGGAUGAGACUUCUGUGAGCAGCGAGGAUUUUGAUAUGAGCGACUCCACAUGGAUGUCAGCUGACCCGCACCUGGCC,-1.9
UGUGACAGGAGAGCGCUUGAAGAGCAAUGUGACGAGGACCAUCAGACACCGAGGGAUGGAGAGACAUCCCACAGGGCCCAGAUUCAGCAG,0.868
UGGUGUUCAUAUUGCUGAUGUGAGCCAUUUUAUUAGGCCAGGAAAUGCCUUGGAUCAAGAAUCAGCCAGAAGAGGAACAACUGUGUAUCU,-1.83
UGGUCCUGGUGGCAUGCGGGGAGGAAGAGGUGGCCUCAUGGAUCGUGGUGGUCCCGGUGGAAUGUUCAGAGGUGGCCGUGGUGGAGACAG,0.0872
AGUCCUGUGCUACACAUCGUAUGUACCGAAUCGGAAAAAAAGGAAAAAAAGGAAAGGAAAGUAUUAUGUUACGCCGUUCGGAUCUGCACU,-1.98
CAAGUCCUGUGCUACACAUCGUAUGUACCGAAUCGGGAAAGGGAAAAAGGGAGGGAAAGUAUUAUGUUACGCCGUUCGGAUCUGCACUUC,-0.261

# Study 5
# Target: CCNB1, cyclin fold, Cln2 fusion (human)
# Technique: yeast growth competition, sequencing
# Sample: yeast
# Setting: weak parent motif
# Baseline: not given
# Direction: higher = stronger binding
# Starting sequence: CDKN1B docking peptide (human); PSACRNLFGPVDH
Substitution,normalised enrichment score
C4F,0.163
S2P,0.971
N6L,0.758
D12R,0.453
N6R,0.279
V11L,0.836
C4D,0.193
V11W,1.52
S2V,0.557
G9F,-0.0138
R5H,0.312
D12C,0.515
N6H,-0.00507
S2F,0.622
F8K,0.491

# Study 6
# Target: Histone acetyltransferase KAT6A, winged helix 2, GST fusion (KAT6A, Homo sapiens, UniProt Q92794, residues 85-181)
# Technique: protein binding microarray
# Molecule type: double-stranded DNA, one strand shown
# Sample: in vitro
# Concentration: not given
# Setting: 8-mer, flanks averaged, mean of 2 arrays, mostly near background
# Baseline: not given
# Direction: higher = stronger binding
# Target sequence (chain): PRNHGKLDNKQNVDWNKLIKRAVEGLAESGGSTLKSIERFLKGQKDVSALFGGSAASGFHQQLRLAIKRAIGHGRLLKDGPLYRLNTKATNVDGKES
Strand,E-score
GGAAGGGA,0.0902
AGGTTGAT,-0.171
CGACATAG,-0.103
GCCACTTA,-0.188
CCAGTGCA,0.0322
GGAATTCC,-0.0859
ATAGTCCG,-0.0827
GAACTCCC,0.114
GTAAGGTA,-0.0199
AACAAAGA,-0.00716
CAACCCGA,0.0914
TGATCACA,-0.00604
CTGTAACA,-0.0639
ACTAACGC,0.00596
GATGATGC,-0.0999
CCTGCTCA,0.115
GGGGGAAA,0.112
ACGACGAC,-0.166
